Published values pooled from the literature.
Protocols differ between the studies behind these lines.
Cell line: MCF-10A

CC(=O)N1CCCC[C@H]1C(=O)NC(C)(C)C(=O)N1CCCC[C@H]1C(=O)NC(C)(C)C(=O)NC(C)(C)C(=O)N[C@@H](CC(C)C)C(=O)NC[C@@H](C)C(=O)NCC(=O)NC(C)(C)C(=O)NC(C)(C)C(=O)N1CCCC[C@H]1C(=O)NC(C)(C)C(=O)NCC(=O)N[C@@H](CC(C)C)C(=O)NC(C)(C)C(=O)N[C@@H](CC(C)C)C[N+]1=C2CCCN2CCC1
GI50 (cell growth or viability, SRB; 48 h): 0.323 µM

C[C@H](NC(=O)[C@H](CCCNC(=N)N)NC(=O)[C@H](CCCNC(=N)N)NC(=O)[C@@H]1CCCN1C(=O)CNC(=O)[C@H](CCCNC(=N)N)NC(=O)[C@H](CCCNC(=N)N)NC(=O)CN)C(=O)N[C@@H](CC(N)=O)C(=O)N[C@@H](CCC(N)=O)C(=O)N[C@@H](CC(N)=O)C(=O)NCC(=O)N[C@H](C(=O)N[C@@H](CCCNC(=N)N)C(=O)N[C@@H](CCCNC(=N)N)C(=O)N[C@@H](CCCNC(=N)N)C(=O)N[C@@H](CCCNC(=N)N)C(=O)N[C@@H](CCCNC(=N)N)C(=O)N[C@@H](CCCNC(=N)N)C(=O)N[C@H](C(N)=O)[C@@H](C)O)[C@@H](C)O
IC50 (cell viability, CellTiter-Blue; 24 h, serum-free medium): > 100 µM

CC[C@H](C)[C@@H]1NC(=O)[C@H](CCCNC(=N)N)NC(=O)C[C@@H](c2cccc3ccccc23)NC(=O)[C@@H]2CSSC[C@H](NC(=O)C[C@@H](c3cccc4ccccc34)NC(=O)[C@H](CCCNC(=N)N)NC(=O)[C@@H]3CCCN3C(=O)[C@@H]3CCCN3C1=O)C(=O)N[C@@H](Cc1ccccc1)C(=O)N1CCC[C@H]1C(=O)N[C@@H](CC(=O)O)C(=O)N[C@@H](CC(=O)O)C(=O)N[C@@H](Cc1ccccc1)C(=O)N2
IC50 (cell growth or viability, ATP luminescence): > 40 µM

C#CCN[C@@H]1C=C[C@]2(O[C@H]([C@@H](CC)C(=O)[C@@H](C)[C@@H](O)[C@H](C)[C@@H]3O[C@@H]([C@@H](CC)C(=O)O)CC[C@@H]3C)[C@@H](C)C[C@H]2C)O[C@@]12CC[C@@](C)([C@H]1CC[C@](O)(CC)[C@H](C)O1)O2
IC50 (cell growth or viability, resazurin; 72 h): 0.12 µM

CC(=O)N1CCCC[C@H]1C(=O)NC(C)(C)C(=O)N1CCCC[C@H]1C(=O)NC(C)(C)C(=O)NC(C)(C)C(=O)N[C@@H](CC(C)C)C(=O)NCCC(=O)NCC(=O)NC(C)(C)C(=O)NC(C)(C)C(=O)N1CCCC[C@H]1C(=O)NC(C)(C)C(=O)NCC(=O)N[C@@H](CC(C)C)C(=O)NC(C)(C)C(=O)N[C@@H](CC(C)C)C[N+]1=C2CCCN2CCC1
GI50 (cell growth or viability, SRB; 48 h): 0.326 µM

C=CC[P](c1ccccc1)(c1ccccc1)[Pt]([S]c1ncccn1)([S]c1ncccn1)[P](CC=C)(c1ccccc1)c1ccccc1
IC50 (cell growth or viability, MTT): 44.7 µM

CC(=O)N1CCCC[C@H]1C(=O)NC(C)(C)C(=O)N1CCCC[C@H]1C(=O)NC(C)(C)C(=O)NC(C)(C)C(=O)N[C@@H](CC(C)C)C(=O)N[C@H](C)CC(=O)NCC(=O)NC(C)(C)C(=O)NC(C)(C)C(=O)N1CCCC[C@H]1C(=O)NC(C)(C)C(=O)NCC(=O)N[C@@H](CC(C)C)C(=O)NC(C)(C)C(=O)N[C@@H](CC(C)C)C[N+]1=C2CCCN2CCC1
GI50 (cell growth or viability, SRB; 48 h): > 1 µM

C=CC[P](c1ccccc1)(c1ccccc1)[Pt]([S]c1ccc(C(F)(F)F)cn1)([S]c1ccc(C(F)(F)F)cn1)[P](CC=C)(c1ccccc1)c1ccccc1
IC50 (cell growth or viability, MTT): 53.3 µM

[Cl][Au-][P+](c1ccccc1)(c1ccccc1)c1cc[cH-]c1.[Cl][Au-][P+](c1ccccc1)(c1ccccc1)c1cc[cH-]c1.[Cl][Ti+2][Cl]
IC50 (cell growth or viability, XTT): 9.64 µM

N=C(N)NCCC[C@H](NC(=O)[C@H](CCCNC(=N)N)NC(=O)[C@@H]1CCCN1C(=O)[C@H](CCCNC(=N)N)NC(=O)[C@H](CCCNC(=N)N)NC(=O)[C@H](CCCNC(=N)N)NC(=O)[C@H](Cc1c[nH]c2ccccc12)NC(=O)[C@H](CCCNC(=N)N)NC(=O)[C@H](CCCNC(=N)N)NC(=O)[C@H](CCCNC(=N)N)NC(=O)[C@H](CCCNC(=N)N)NC(=O)[C@H](CCCNC(=N)N)NC(=O)[C@H](Cc1c[nH]c2ccccc12)NC(=O)[C@H](CCCNC(=N)N)NC(=O)[C@H](CCCNC(=N)N)NC(=O)[C@H](Cc1ccc(O)cc1)NC(=O)[C@H](CCCNC(=N)N)NC(=O)[C@H](CCCNC(=N)N)NC(=O)[C@H](CCCNC(=N)N)NC(=O)[C@@H](N)Cc1c[nH]c2ccccc12)C(N)=O
IC50 (cell growth or viability, MTT; 24 h, serum-free): 18.2 µM

CC(=O)N1CCCC[C@H]1C(=O)NC(C)(C)C(=O)N1CCCC[C@H]1C(=O)NC(C)(C)C(=O)NC(C)(C)C(=O)N[C@@H](CC(C)C)C(=O)NCCC(=O)N[C@@H](C)C(=O)NC(C)(C)C(=O)NC(C)(C)C(=O)N1CCCC[C@H]1C(=O)NC(C)(C)C(=O)NCC(=O)N[C@@H](CC(C)C)C(=O)NC(C)(C)C(=O)N[C@@H](CC(C)C)C[N+]1=C2CCCN2CCC1
GI50 (cell growth or viability, SRB; 48 h): 0.213 µM

C=CC[P](c1ccccc1)(c1ccccc1)[Pt]([S]c1nc2ccccc2[nH]1)([S]c1nc2ccccc2[nH]1)[P](CC=C)(c1ccccc1)c1ccccc1
IC50 (cell growth or viability, MTT): 47.1 µM

C[C@@H](O)[C@H](NC(=O)[C@H](CCCNC(=N)N)NC(=O)[C@H](CCCNC(=N)N)NC(=O)[C@H](CCCNC(=N)N)NC(=O)[C@@H]1CCCN1C(=O)[C@@H](N)CO)C(=O)N1CCC[C@H]1C(=O)N[C@@H](CO)C(=O)N1CCC[C@H]1C(=O)N[C@@H](CCCNC(=N)N)C(=O)N[C@@H](CCCNC(=N)N)C(=O)N[C@@H](CCCNC(=N)N)C(=O)N[C@@H](CCCNC(=N)N)C(=O)N[C@@H](CO)C(=O)N[C@@H](CCC(N)=O)C(=O)N[C@@H](CO)C(=O)N1CCC[C@H]1C(=O)N[C@@H](CCCNC(=N)N)C(=O)N[C@@H](CCCNC(=N)N)C(=O)N[C@@H](CCCNC(=N)N)C(N)=O
IC50 (cell viability, CellTiter-Blue; 24 h, serum-free medium): > 100 µM

Some of these lines once more:
CC(=O)N1CCCC[C@H]1C(=O)NC(C)(C)C(=O)N1CCCC[C@H]1C(=O)NC(C)(C)C(=O)NC(C)(C)C(=O)N[C@@H](CC(C)C)C(=O)N[C@H](C)CC(=O)NCC(=O)NC(C)(C)C(=O)NC(C)(C)C(=O)N1CCCC[C@H]1C(=O)NC(C)(C)C(=O)NCC(=O)N[C@@H](CC(C)C)C(=O)NC(C)(C)C(=O)N[C@@H](CC(C)C)C[N+]1=C2CCCN2CCC1
GI50 (cell growth or viability, SRB; 48 h): > 1 µM

C=CC[P](c1ccccc1)(c1ccccc1)[Pt]([S]c1ccc(C(F)(F)F)cn1)([S]c1ccc(C(F)(F)F)cn1)[P](CC=C)(c1ccccc1)c1ccccc1
IC50 (cell growth or viability, MTT): 53.3 µM
